{"data": "Assay results of several laboratories", "note": "Numbered parts are unrelated; each lists some results of a single study. “And” joins repeats or separate records; there may be more than shown. Numbers after ± are the reported error.", "sequence of UniProt P51813 (whole entry, looked up)": "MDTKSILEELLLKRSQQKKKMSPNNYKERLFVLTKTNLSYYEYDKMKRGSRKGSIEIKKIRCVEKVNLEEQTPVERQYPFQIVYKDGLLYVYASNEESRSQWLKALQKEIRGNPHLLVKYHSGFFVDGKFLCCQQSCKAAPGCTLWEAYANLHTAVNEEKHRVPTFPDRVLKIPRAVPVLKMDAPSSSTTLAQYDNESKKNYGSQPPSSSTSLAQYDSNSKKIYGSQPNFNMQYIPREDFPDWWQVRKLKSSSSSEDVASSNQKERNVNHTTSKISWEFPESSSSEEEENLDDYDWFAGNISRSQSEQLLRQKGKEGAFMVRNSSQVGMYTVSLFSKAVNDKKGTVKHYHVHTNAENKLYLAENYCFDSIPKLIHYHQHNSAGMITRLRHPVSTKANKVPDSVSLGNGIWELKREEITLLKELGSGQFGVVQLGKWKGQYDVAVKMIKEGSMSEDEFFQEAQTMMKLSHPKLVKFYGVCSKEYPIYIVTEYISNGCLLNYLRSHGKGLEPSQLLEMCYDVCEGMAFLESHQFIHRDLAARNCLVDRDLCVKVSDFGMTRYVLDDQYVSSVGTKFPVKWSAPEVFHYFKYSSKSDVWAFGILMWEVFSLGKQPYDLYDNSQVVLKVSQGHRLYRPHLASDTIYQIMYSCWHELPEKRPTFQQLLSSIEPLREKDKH"}
{"data": "Series 1", "SMILES": "C[C@@H]1CN(c2ccc(-c3cc(C(=O)NCCOCCOCCOCCOCCNC(=O)/C=C/c4[nH]cc(C(=O)N[C@@H](CC(N)=O)c5ccc(F)c(Cl)c5)c4-c4ccc(Cl)cc4F)ccc3F)cc2NC(=O)c2c[nH]c(=O)cc2C(F)(F)F)C[C@H](C)N1C", "observed": "thermal unfolding", "technique": "differential scanning fluorimetry", "concentration": "5.5 µM", "reading": "higher = more unfolded", "WDR5": "WD repeat-containing protein 5 (WDR5, Homo sapiens, UniProt P61964)", "DCAF1": "DDB1- and CUL4-associated factor 1 (DCAF1, Homo sapiens, UniProt Q9Y4B6)", "sequence of UniProt Q9Y4B6 (whole entry, looked up)": "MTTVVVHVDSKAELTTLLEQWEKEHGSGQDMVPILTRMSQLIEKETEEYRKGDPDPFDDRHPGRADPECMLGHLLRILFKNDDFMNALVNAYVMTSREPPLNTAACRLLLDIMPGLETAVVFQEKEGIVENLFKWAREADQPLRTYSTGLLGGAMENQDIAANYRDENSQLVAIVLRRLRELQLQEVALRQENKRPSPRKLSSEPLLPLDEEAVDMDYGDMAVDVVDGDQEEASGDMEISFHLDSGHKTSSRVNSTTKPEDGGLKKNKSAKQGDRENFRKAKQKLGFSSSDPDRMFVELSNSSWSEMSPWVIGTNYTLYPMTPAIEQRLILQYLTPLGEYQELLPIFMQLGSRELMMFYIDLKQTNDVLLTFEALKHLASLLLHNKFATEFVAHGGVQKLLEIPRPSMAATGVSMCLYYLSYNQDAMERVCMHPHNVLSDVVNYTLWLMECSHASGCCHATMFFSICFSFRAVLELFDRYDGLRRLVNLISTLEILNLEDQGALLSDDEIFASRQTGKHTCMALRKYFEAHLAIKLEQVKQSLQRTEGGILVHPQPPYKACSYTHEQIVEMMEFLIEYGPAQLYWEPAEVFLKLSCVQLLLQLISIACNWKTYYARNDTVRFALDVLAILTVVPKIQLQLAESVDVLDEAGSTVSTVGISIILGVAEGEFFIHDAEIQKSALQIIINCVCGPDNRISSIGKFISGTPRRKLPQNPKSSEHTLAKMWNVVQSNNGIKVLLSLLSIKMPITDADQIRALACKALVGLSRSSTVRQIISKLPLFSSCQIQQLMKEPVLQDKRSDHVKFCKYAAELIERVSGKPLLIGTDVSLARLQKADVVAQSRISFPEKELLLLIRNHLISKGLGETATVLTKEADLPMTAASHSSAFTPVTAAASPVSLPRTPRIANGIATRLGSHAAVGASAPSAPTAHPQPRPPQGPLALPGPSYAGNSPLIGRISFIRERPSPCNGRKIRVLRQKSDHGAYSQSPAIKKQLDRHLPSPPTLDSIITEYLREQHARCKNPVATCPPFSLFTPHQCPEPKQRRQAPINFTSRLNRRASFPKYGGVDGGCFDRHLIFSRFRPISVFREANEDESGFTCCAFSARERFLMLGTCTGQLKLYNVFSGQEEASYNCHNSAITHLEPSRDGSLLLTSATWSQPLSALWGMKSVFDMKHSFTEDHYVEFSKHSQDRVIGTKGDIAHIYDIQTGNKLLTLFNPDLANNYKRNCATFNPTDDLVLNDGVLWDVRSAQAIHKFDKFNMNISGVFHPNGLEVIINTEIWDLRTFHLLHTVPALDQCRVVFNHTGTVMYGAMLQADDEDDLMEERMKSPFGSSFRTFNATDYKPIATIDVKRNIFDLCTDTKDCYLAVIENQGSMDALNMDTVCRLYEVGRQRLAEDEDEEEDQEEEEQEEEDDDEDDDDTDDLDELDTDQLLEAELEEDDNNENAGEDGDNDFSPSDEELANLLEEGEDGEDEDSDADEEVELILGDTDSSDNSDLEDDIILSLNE"}
{"target": "WDR5", "temperature": "59.81 °C", "SYPRO Orange fluorescence": "15700 a.u."}
{"target": "WDR5", "temperature": "35.8 °C", "SYPRO Orange fluorescence": "13400 a.u."}
{"target": "DCAF1", "temperature": "76.81 °C", "SYPRO Orange fluorescence": "48100 a.u."}
{"target": "DCAF1", "temperature": "32.8 °C", "SYPRO Orange fluorescence": "9770 a.u."}
{"target": "DCAF1", "temperature": "57.61 °C", "SYPRO Orange fluorescence": "29600 a.u."}
{"target": "DCAF1", "temperature": "38.4 °C", "SYPRO Orange fluorescence": "11100 a.u."}
{"target": "WDR5", "temperature": "65.01 °C", "SYPRO Orange fluorescence": "14000 a.u."}
{"target": "WDR5", "temperature": "46.8 °C", "SYPRO Orange fluorescence": "15700 a.u."}
{"target": "DCAF1", "temperature": "82.21 °C", "SYPRO Orange fluorescence": "42900 a.u."}
{"target": "DCAF1", "temperature": "37 °C", "SYPRO Orange fluorescence": "10600 a.u."}
{"target": "DCAF1", "temperature": "50.4 °C", "SYPRO Orange fluorescence": "15500 a.u."}
{"data": "Series 2", "Compound": "Cc1nc(C)c(C=[N+]([O-])C(C)(C)C)nc1C", "notes": "unit not given", "baseline": "β-actin"}
{"assay": "Western blot, item: MEF2D", "test system": "MPTP-treated mice, substantia nigra cytosol", "setting": "90 mg/kg", "protein level": "144 and 121 and 95.8 and 100"}
{"assay": "western blot, item: PGC-1α", "test system": "MPTP mouse model, substantia nigra nuclei", "setting": "30 mg/kg", "protein level": "98.3 and 88.1 and 102"}
{"target or system": "primary rat midbrain neurons", "assay": "Western blot, item: SIRT1", "setting": "300 µM, together with: MPP+", "protein level": "167 and 146 and 161"}
{"assay": "western blot, item: HO-1", "test system": "MPTP mouse model, substantia nigra nuclei", "setting": "30 mg/kg", "protein level": "79.8 and 113 and 76.7"}
{"assay": "Western blot, item: PGC-1α", "test system": "primary midbrain neurons, rat", "setting": "100 µM, together with: MPP+", "protein level": "143 and 81.5 and 115"}
{"assay": "Western blot, item: tyrosine hydroxylase", "test system": "MPTP mouse model, substantia nigra", "setting": "30 mg/kg", "protein level": "105 and 99.5 and 90.4 and 103"}
{"target or system": "primary rat midbrain neurons", "assay": "Western blot, item: SIRT1", "setting": "30 µM, together with: MPP+", "protein level": "78.5 and 115 and 119"}
{"target or system": "primary rat midbrain neurons", "assay": "Western blot, item: MEF2D", "setting": "30 µM, together with: MPP+", "protein level": "72.1 and 113 and 78.8"}
{"data": "Series 3", "host": "female CD-1 mouse", "matrix": "plasma", "route": "oral", "dose": "60 mg/kg"}
{"SMILES": "Cc1ccc(O)c(C)c1-c1cnc2[nH]c(-c3cnc(N4CCC5(CC4)CC(N4CCN(c6ccc(NC7CCC(=O)NC7=O)cc6F)CC4)CO5)nc3)cc2c1C#N (centres unmarked)", "AUC(0-t) [ng·h/mL]": 8630}
{"SMILES": "Cc1ccc(O)c(C)c1-c1cnc2[nH]c(-c3cnc(N4CCC(CN5CCN(c6cc7c(cc6F)c(N6CCC(=O)NC6=O)nn7C)CC5)CC4)nc3)cc2c1C#N", "AUC(0-t) [ng·h/mL]": 10900}
{"SMILES": "Cc1ccc(O)c(C)c1-c1cnc2[nH]c(-c3cnc(N4CCC(CN5CCN(c6ccc(NC7CCC(=O)NC7=O)cc6F)CC5)CC4)nc3)cc2c1C#N (centres unmarked)", "AUC(0-t) [ng·h/mL]": 28700}
{"SMILES": "Cc1ccc(O)c(C)c1-c1cnc2[nH]c(-c3cnc(N4CCC(CN5CCN(c6ccc7c(c6)C(=O)N(C6CCC(=O)NC6=O)C7=O)CC5)CC4)nc3)cc2c1C#N (centres unmarked)", "AUC(0-t) [ng·h/mL]": 16400}
{"SMILES": "Cc1ccc(O)c(C)c1-c1cnc2[nH]c(-c3cnc(N4CCC(CCN5CCN(c6ccc(NC7CCC(=O)NC7=O)cc6F)CC5)CC4)nc3)cc2c1C#N (centres unmarked)", "AUC(0-t) [ng·h/mL]": 7540}
{"SMILES": "Cc1ccc(O)c(C)c1-c1cnc2[nH]c(-c3cnc(N4CCC(CN5CCN(c6ccc7c(c6F)CN(C6CCC(=O)NC6=O)C7=O)CC5)CC4)nc3)cc2c1C#N (centres unmarked)", "AUC(0-t) [ng·h/mL]": 10500}
{"data": "Further values, each from its own experiment"}
{"Compound": "CN(C1COC1)C(C)(C)/C=C(\\C#N)C(=O)N1CCC[C@H]1Cn1nc(-c2ccc(Oc3ccccc3)cc2F)c2c(N)ncnc21", "target": "Cytoplasmic tyrosine-protein kinase BMX (BMX, Homo sapiens, UniProt P51813)", "technique": "fluorescence competition", "measurement": "residence time", "value": "2640 ± 840 min"}
